Measured values gathered from unrelated publications.
Each numbered part is a random draw from the data of one study; scales do not carry over between parts. Substitutions count along the parent as printed.

Sample 1
Target: Centromere-binding protein 1, full length, N-terminal tag (CBF1, Saccharomyces cerevisiae, UniProt P17106, residues 1-351)
Sequence of UniProt P17106 (whole entry, looked up): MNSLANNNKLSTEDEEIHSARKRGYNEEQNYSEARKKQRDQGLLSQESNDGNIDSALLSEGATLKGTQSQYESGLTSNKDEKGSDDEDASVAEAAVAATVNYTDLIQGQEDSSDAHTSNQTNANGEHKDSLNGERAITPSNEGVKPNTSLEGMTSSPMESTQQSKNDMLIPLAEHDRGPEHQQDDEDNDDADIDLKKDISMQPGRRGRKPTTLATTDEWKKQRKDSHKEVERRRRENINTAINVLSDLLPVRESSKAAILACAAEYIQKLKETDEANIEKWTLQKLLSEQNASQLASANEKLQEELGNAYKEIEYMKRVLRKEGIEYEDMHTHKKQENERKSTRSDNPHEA
Method: protein-binding microarray
Form: double-stranded DNA, one strand shown
Medium: in vitro
Concentration: 0.8 µM
Setting: whole 60-bp probe, no competitor
Reading: higher = stronger binding
Constant ends, left off below: … GTCTTGATTCGCTTGACGCTGCTG
Strand	fluorescence intensity [a.u.]
CTATCCACAAGATATTGCGTGACAATTACTATTTTC	637
GAATGATTTTTTGCTCACGTGCTCTGCGGGTAATAG	13700
GAATAATACAAACCTCATGTGCATATATACATATAG	569
GAAGCATGACCGTGTATGGTGACATATAAATGGTAG	805
CTAGTGAAAATAGATCTGCTGATAAATAATGCATTC	847
CTACAGGTAACAAATCTGGTGAAATCACCATTATTC	496
CTAAGCTTTGTTTCACTCGTGCCCAGGATAATTTTC	613
CTAAGGGTAAAAGATCACGAATAAAAAACGAACTTC	559

Sample 2
Target: HLA class I histocompatibility antigen, A alpha chain, allele A*80:01 (Homo sapiens, UniProt P04439)
Effect on: peptide-MHC binding
Form: peptide
Concentration: concentration not given
Sequence	binding
IMYDHLPGF	inactive
LVKSAWLSL	inactive
MHGHGKHIL	inactive
SSDDFALIV	inactive
EVDQTKIQY	inactive
LAKSVFNSL	inactive
KAYKIISLK	inactive
EIPDVLNSL	inactive
WMRGRGRAL	inactive

Sample 3
Substitution: G23D
Target: ABI1, truncated, D143A, DHFR fusion (Arabidopsis thaliana)
Method: DHFR PCA, deep sequencing
Medium: yeast
Setting: methotrexate growth selection, single substitutions
Relative to: wild-type fitted maximum
Reading: higher = stronger binding
Starting sequence: PYL1, truncated, DHFR fusion (Arabidopsis thaliana); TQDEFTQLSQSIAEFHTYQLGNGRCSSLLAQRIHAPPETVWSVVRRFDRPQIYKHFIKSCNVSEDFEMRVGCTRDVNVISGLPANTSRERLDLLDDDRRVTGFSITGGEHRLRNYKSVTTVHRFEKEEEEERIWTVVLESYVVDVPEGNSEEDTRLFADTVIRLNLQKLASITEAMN; partner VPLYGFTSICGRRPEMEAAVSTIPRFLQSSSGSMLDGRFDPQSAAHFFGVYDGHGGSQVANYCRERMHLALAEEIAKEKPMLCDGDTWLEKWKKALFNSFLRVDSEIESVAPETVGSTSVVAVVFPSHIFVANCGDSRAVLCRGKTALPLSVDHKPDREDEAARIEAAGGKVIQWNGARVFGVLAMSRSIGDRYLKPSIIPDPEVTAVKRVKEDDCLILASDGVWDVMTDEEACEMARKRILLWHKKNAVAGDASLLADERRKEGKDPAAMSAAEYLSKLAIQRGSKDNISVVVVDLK
with	relative binding score [%]
(+)-ABA 17 µM	73.8
(+)-ABA 710 µM	104
(+)-ABA 200 µM	96.4
(+)-ABA 2500 µM	98.1
(+)-ABA 1.4 µM	40.8
(+)-ABA 4.8 µM	61.7

Sample 4
Target: CCND3, cyclin fold, Cln2 fusion (human)
Method: yeast growth competition, sequencing
Medium: yeast
Setting: weak parent motif
Relative to: not given
Reading: higher = stronger binding
Starting sequence: viral docking peptide; CKVKRKLFGSENI; partner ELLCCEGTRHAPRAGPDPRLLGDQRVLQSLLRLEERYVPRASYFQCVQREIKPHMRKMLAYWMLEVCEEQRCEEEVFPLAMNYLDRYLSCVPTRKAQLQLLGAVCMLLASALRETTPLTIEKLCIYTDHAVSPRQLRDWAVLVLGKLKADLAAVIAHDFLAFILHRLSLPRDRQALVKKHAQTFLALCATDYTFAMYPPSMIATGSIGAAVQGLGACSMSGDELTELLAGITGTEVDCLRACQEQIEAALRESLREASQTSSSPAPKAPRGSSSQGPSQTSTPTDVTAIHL
Substitution	normalised enrichment score
V3A	0.149
I13A	0.173
K4A	0.143
R5K	-0.325
R5A	0.148
E11A	0.148
F8A	0.139
G9A	0.148

Some of these lines once more (sample 3):
with	relative binding score [%]
(+)-ABA 710 µM	104
(+)-ABA 2500 µM	98.1
